Published values of several laboratories.
Values joined by “and” are separate records of one study, mostly repeats; a detail may differ. Numbers after ± are the reported error.

SMILES	assay	test system	setting	scale	measurement	value
CC(C)(C)[C@H](NC(=O)C(F)(F)F)C(=O)N1C[C@H]2[C@@H]([C@H]1C(=O)N[C@H](C#N)C[C@@H]1CCNC1=O)C2(C)C	–	human liver microsomes	60 min	–	remaining compound	101%
CC(C)C[C@@H]1NC(=O)CNC(=O)[C@H](CC(N)=O)NC(=O)[C@H](CCCNC(=N)N)NC(=O)[C@H]([C@@H](C)O)NC(=O)[C@@H]2CSSC[C@@H]3NC(=O)[C@H]([C@@H](C)O)NC(=O)CNC(=O)CNC(=O)[C@H](C(C)C)NC(=O)[C@@H]4CSSC[C@H](NC(=O)[C@H]([C@@H](C)O)NC(=O)[C@H](CSSC[C@H](NC(=O)[C@H](C(C)C)NC(=O)[C@@H]5CCCN5C1=O)C(=O)NCC(=O)N[C@@H](CCC(=O)O)C(=O)N[C@@H]([C@@H](C)O)C(=O)N4)NC(=O)CNC(=O)[C@@H]1CCCN1C(=O)[C@H]([C@@H](C)O)NC(=O)[C@H](CC(N)=O)NC3=O)C(=O)N[C@@H](CCCCN)C(=O)N[C@@H](Cc1c[nH]c3ccccc13)C(=O)N1CCC[C@H]1C(=O)N[C@@H](C(C)C)C(=O)N2	HPLC	ammonium bicarbonate 0.1 M	180 µM, 7 days, pH 9.0, 37 °C, deamidation stability	–	remaining peptide	56.7 ± 1.3%
CCC[C@@](N)(CO)CCc1ccc(OCCCCCC(C)C)cc1	–	human liver microsomes	1 h	–	remaining compound	60%
CC(C)C[C@@H]1NC(=O)CNC(=O)[C@H](CC(N)=O)NC(=O)[C@H](CCCNC(=N)N)NC(=O)[C@H]([C@@H](C)O)NC(=O)[C@@H]2CSSC[C@@H]3NC(=O)[C@H]([C@@H](C)O)NC(=O)CNC(=O)CNC(=O)[C@H](C(C)C)NC(=O)[C@@H]4CSSC[C@H](NC(=O)[C@H]([C@@H](C)O)NC(=O)[C@H](CSSC[C@H](NC(=O)[C@H](C(C)C)NC(=O)[C@@H]5CCCN5C1=O)C(=O)NCC(=O)N[C@@H](CCCCN)C(=O)N[C@@H]([C@@H](C)O)C(=O)N4)NC(=O)CNC(=O)[C@@H]1CCCN1C(=O)[C@H]([C@@H](C)O)NC(=O)[C@H](CC(N)=O)NC3=O)C(=O)N[C@@H](CO)C(=O)N[C@@H](Cc1c[nH]c3ccccc13)C(=O)N1CCC[C@H]1C(=O)N[C@@H](C(C)C)C(=O)N2	HPLC	ammonium bicarbonate 0.1 M	180 µM, 7 days, pH 9.0, 37 °C, deamidation stability	–	remaining peptide	34.7%
CC(C)=CCC[C@](C)(O[C@@H]1O[C@H](CO)[C@@H](O)[C@H](O)[C@H]1O)[C@H]1CC[C@]2(C)[C@@H]1[C@H](O)C[C@@H]1[C@@]3(C)CC[C@H](O)C(C)(C)[C@@H]3CC[C@]12C	–	rat plasma	25 ng/mL, 24 h, room temperature	–	remaining amount	100.1 ± 0.5%
CC[C@@H](C)[C@@H](NC(=O)[C@@H](Cc1ccc(O)cc1)NC(=O)[C@H]1CCCN1C(=O)[C@@H](CCCNC(=N)N)NC(=O)[C@H](N)Cc1c[nH]cn1)C(=O)N[C@H](C)C(=O)N[C@H](Cc1c[nH]cn1)C(=O)N[C@H](CCCNC(=N)N)C(=O)N[C@@H](C(=O)N[C@H](Cc1ccc(O)cc1)C(=O)N[C@H](CO)C(=O)N[C@H](Cc1ccccc1)C(N)=O)C(C)C	–	10% human serum	48 h	–	remaining compound	95.3% and 94.6%
CC[C@H](C)[C@H](NC(C)=O)C(=O)N[C@@H](CC(C)C)C(=O)N[C@@H](CCCNC(=N)N)C(=O)N[C@@H](Cc1c[nH]c2ccccc12)C(=O)N[C@@H](CO)C(=O)N[C@@H](CCCNC(=N)N)C(=O)N[C@@H](CCCCN)C(=O)N[C@@H](CC(C)C)C(=O)N1CCC[C@H]1C(=O)N[C@@H](CS)C(=O)N[C@H](C(=O)N[C@@H](CO)C(N)=O)C(C)C	12G5 competition, SUP-T1 cells	human plasma	20 µM, 2 h, 37 °C	–	remaining activity	78 ± 4%
CC(C)C[C@@H]1NC(=O)CNC(=O)[C@H](CC(N)=O)NC(=O)[C@H](CCCNC(=N)N)NC(=O)[C@H]([C@@H](C)O)NC(=O)[C@@H]2CSSC[C@@H]3NC(=O)[C@H]([C@@H](C)O)NC(=O)CNC(=O)CNC(=O)[C@H](C(C)C)NC(=O)[C@@H]4CSSC[C@H](NC(=O)[C@H]([C@@H](C)O)NC(=O)[C@H](CSSC[C@H](NC(=O)[C@H](C(C)C)NC(=O)[C@@H]5CCCN5C1=O)C(=O)NCC(=O)N[C@@H](CCC(=O)O)C(=O)N[C@@H]([C@@H](C)O)C(=O)N4)NC(=O)CNC(=O)[C@H](CCCCN)NC(=O)[C@H]([C@@H](C)O)NC(=O)[C@H](CC(N)=O)NC3=O)C(=O)N[C@@H](CO)C(=O)N[C@@H](Cc1c[nH]c3ccccc13)C(=O)N1CCC[C@H]1C(=O)N[C@@H](C(C)C)C(=O)N2	HPLC	ammonium bicarbonate 0.1 M	180 µM, 7 days, pH 9.0, 37 °C, deamidation stability	–	remaining peptide	76.8 ± 0.6%
CC(=O)OC/C(C)=C/CCP(=O)(OCOC(=O)CC1CCCCC1)Oc1ccc(C(C)C)cc1 (stereo not drawn)	–	50% CD1 mouse plasma	100 µM, 2 h, pH 7.5, 37 °C	–	remaining compound	0%
CC[C@H](C)[C@H](NC(=O)[C@H](CCCCN)NC(=O)[C@H](CCC(=O)O)NC(=O)[C@H](CCCCN)NC(=O)[C@H](CO)NC(=O)[C@H](CCCCN)NC(=O)[C@H](CCCNC(=N)N)NC(=O)[C@H](Cc1ccccc1)NC(=O)[C@H](Cc1ccccc1)NC(=O)[C@H](CC(=O)O)NC(=O)CNC(=O)[C@H](CC(C)C)NC(=O)[C@@H](N)CC(C)C)C(=O)NCC(=O)N[C@@H](CCCCN)C(=O)N[C@@H](CCC(=O)O)C(=O)N[C@@H](Cc1ccccc1)C(=O)N[C@@H](CCCCN)C(=O)N[C@@H](CCCNC(=N)N)C(=O)N[C@H](C(=O)N[C@H](C(=O)N[C@@H](CCC(N)=O)C(=O)N[C@@H](CCCNC(=N)N)C(=O)N[C@H](C(=O)N[C@@H](CCCCN)C(=O)N[C@@H](CC(=O)O)C(=O)N[C@@H](Cc1ccccc1)C(=O)N[C@@H](CC(C)C)C(=O)N[C@@H](CCCNC(=N)N)C(=O)N[C@@H](CC(N)=O)C(=O)N[C@@H](CC(C)C)C(=O)N[C@H](C(=O)N1CCC[C@H]1C(=O)N[C@@H](CCCNC(=N)N)C(=O)N[C@H](C(=O)N[C@@H](CCC(=O)O)C(=O)N[C@@H](CO)C(=O)O)[C@@H](C)O)C(C)C)[C@@H](C)CC)C(C)C)[C@@H](C)CC	LC-MS	buffer with trypsin	40 µM, 30 min, pH 7.5, 37 °C	reference: 0 h	remaining intact peptide	7.73% and 6.26% and 5.32%
CSCC[C@H](NC(=O)[C@H](N)Cc1ccccc1)C(=O)N[C@@H](CCCNC(=N)N)C(=O)N[C@@H](Cc1c[nH]c2ccccc12)C(=O)N[C@@H](CO)C(=O)N[C@@H](CCCNC(=N)N)C(=O)N[C@@H](CCCCN)C(=O)N[C@@H](CCSC)C(=O)N1CCC[C@H]1C(=O)N[C@@H](CS)C(=O)N[C@H](C(=O)N[C@@H](CO)C(N)=O)C(C)C	12G5 competition, SUP-T1 cells	human plasma	concentration not given, 8 h	–	remaining activity	46 ± 1%
CC(C)C[C@@H]1NC(=O)[C@H](CC(N)=O)NC(=O)[C@H](CCCNC(=N)N)NC(=O)[C@H]([C@@H](C)O)NC(=O)[C@@H]2CSSC[C@@H]3NC(=O)[C@H]([C@@H](C)O)NC(=O)CNC(=O)CNC(=O)[C@H](C(C)C)NC(=O)[C@@H]4CSSC[C@H](NC(=O)[C@H](CCCCN)NC(=O)[C@H](CSSC[C@H](NC(=O)[C@H](C(C)C)NC(=O)[C@@H]5CCCN5C(=O)[C@H](CC(C)C)NC1=O)C(=O)NCC(=O)N[C@@H](CCC(=O)O)C(=O)N[C@@H]([C@@H](C)O)C(=O)N4)NC(=O)CNC(=O)[C@@H]1CCCN1C(=O)[C@H]([C@@H](C)O)NC(=O)[C@H](CC(N)=O)NC3=O)C(=O)N[C@@H](CO)C(=O)N[C@@H](Cc1c[nH]c3ccccc13)C(=O)N1CCC[C@H]1C(=O)N[C@@H](C(C)C)C(=O)N2	HPLC	ammonium bicarbonate	180 µM, 7 days, pH 9.0, 25 °C, deamidation stability	–	remaining peptide	99.3 ± 0.6%

A few entries again:
SMILES	assay	test system	setting	scale	measurement	value
CC(=O)OC/C(C)=C/CCP(=O)(OCOC(=O)CC1CCCCC1)Oc1ccc(C(C)C)cc1 (stereo not drawn)	–	50% CD1 mouse plasma	100 µM, 2 h, pH 7.5, 37 °C	–	remaining compound	0%
